# Published values from different studies.
# “And” joins repeats or separate records; there may be more than shown. Numbers after ± are the reported error.
Structure (SMILES),tested on,assay,test system,conditions,how to read,endpoint,result
C#CCCOc1nc(OCC)nc(SC[C@@H](NC(=O)[C@H](N)CCC(=O)O)C(=O)N[C@H](Cc2ccccc2)C(N)=O)n1,,,human plasma,"concentration not given, 48 h",,hydrolysis,~15%
C[N+](C)(CCOCCOCCOCCNC(=S)Nc1ccc(C[C@H]2CN(CC(=O)[O-])CCN(CC(=O)[O-])CCN2CC(=O)[O-])cc1)C[c-]1cccc1.[64Cu+2].[Fe+2].c1cc[cH-]c1,,,"human adult male, heart wall",extrapolated from mouse biodistribution,,absorbed dose,2.22 µSv/MBq
O=C(Nc1cnccc1-c1ccc([18F])nc1)c1ccnc(NC(=O)C2CC2)c1,,,"FVB/NJ mouse, both sexes, brain","intravenous, 40 min",,SUV,0.045
CC(C)[C@H](NC(=O)[C@H](Cc1c[nH]c2ccccc12)NC(=O)[C@H](CCCNC(=N)N)NC(=O)[C@H](CCCNC(=N)N)NC(=O)[C@@H](NC(=O)[C@@H](NC(=O)[C@H](CCCNC(=N)N)NC(=O)[C@@H](NC(=O)[C@@H](NC(=O)[C@H](CCCNC(=N)N)NC(=O)[C@H](CCCNC(=N)N)NC(=O)[C@@H](NC(=O)[C@H](Cc1c[nH]c2ccccc12)NC(=O)[C@H](CCCNC(=N)N)NC(=O)[C@H](CCCNC(=N)N)NC(=O)[C@@H](NC(=O)[C@H](CCCNC(=N)N)NC(=O)[C@H](CCCNC(=N)N)NC(=O)[C@@H](NC(=O)[C@H](Cc1c[nH]c2ccccc12)NC(=O)[C@H](CCCNC(=N)N)NC(=O)[C@@H](N)CCCNC(=N)N)C(C)C)C(C)C)C(C)C)C(C)C)C(C)C)C(C)C)C(C)C)C(=O)N[C@@H](CCCNC(=N)N)C(=O)N[C@@H](CCCNC(=N)N)C(=O)O,,,"CD1 mouse, plasma","intravenous, 15 mg/kg, 16 h, [14C]-labelled compound",,anion gap,33.7 mEq/L
CC(C)(C)C(=O)Nc1ccc2[nH]c(CN3CCC(N(CCCN4CCOCC4)CC4OC(n5cnc6c(N)ncnc65)C(O)C4O)CC3)nc2c1 (centres unmarked),,,"male Sprague-Dawley rat, plasma","intraperitoneal, 20 mg/kg, 10 h",,concentration,21 ng/mL
CN1CCC[C@]1(C)/C=C/S(=O)(=O)NC(=O)Nc1c2c(cc3c1C(O)CC3)CCC2 (some centres unmarked),,,"human, plasma","oral, 50 mg twice daily of parent drug, metabolite of dosed drug",relative to: day 14 over day 1,AUC(0-24) accumulation ratio,1.6
Cc1cc(-c2ccc(C(=O)[C@@H]3CCCC[C@H]3C(=O)Nc3cnn4c3C(=O)NCC4)cc2)[nH]n1,,,"human, faeces","oral, 200 mg, 0-48 h",relative to: dose,cumulative recovery of radioactivity,24.4%
Cc1nc(N)nc2c1C(=O)N[C@@H](c1ccc(F)cc1-c1cccc(OCC[18F])n1)C2,,ex vivo biodistribution,"C57BL/6 mouse, whole blood","intravenous, 1 MBq, 30 min, baseline, vehicle",,SUV,0.76 ± 0.05
CN1CCC[C@]1(C)/C=C/S(=O)(=O)NC(=O)Nc1c2c(cc3c1CCC3O)CCC2 (some centres unmarked),,,"human, plasma","oral, 50 mg twice daily of parent drug, metabolite of dosed drug",relative to: day 14 over day 1,AUC(0-24) accumulation ratio,1.4
Cc1cccc(-c2ccc3nc(N)nn3c2)c1,,,human liver microsomes,40 min,,metabolic turnover,33%
CN1CCC[C@]1(C)/C=C/S(=O)(=O)NC(=O)Nc1c2c(cc3c1CC(O)C3)CCC2 (some centres unmarked),,,"human, plasma","oral, 12.5 mg twice daily of parent drug, metabolite of dosed drug",relative to: day 14 over day 1,AUC(0-24) accumulation ratio,2.7
C/C(N)=N/C(=N\S(=O)(=O)c1ccc(C(F)(F)F)cc1)N1C[C@H](c2ccccc2)C(c2ccc(Cl)cc2)=N1,,,"Beagle dog, plasma","oral, 36 mg/kg",,oral bioavailability,19.3%
Cc1nc(N)nc2c1C(=O)N[C@@H](c1ccc(F)cc1-c1cccc(O[11CH3])n1)C2,,"radioligand, ex vivo biodistribution","healthy mouse, carcass",60 min p.i.,,tracer uptake,46.9 ± 4.6 %ID
O=C(NC1CCCCC1)c1ccnc(N2Cc3cn(Cc4ccc(F)cc4)nc3C2)n1,,metabolic stability,"human, liver microsomes",,,half-life,0.217 h
O=C([O-])CN1CCN(CC(=O)[O-])CCN(CC(CCCc2ccccc2[N+](=O)[O-])N(CC(=O)[O-])CC(=O)[O-])CC1.[90Y+3] (centres unmarked),,TLC,human serum,"23 h, pH 7, 37 °C",,intact radiolabelled complex,99.9 ± 0.1%
COc1ccc2c(c1)CCn1c[n+]3c(c1-2)-c1ccc(OC)cc1CC3,,,"female NSG mice, blood","6 mg/kg, day 20, 5 days per week",,mean corpuscular haemoglobin,15.7 ± 0.85 pg
CC(C)(O)c1ncc([S@](N)(=O)=NC(=O)Nc2c3c(cc4c2CCC4)CCC3)s1,,refers to: Gastrointestinal disorders,healthy human volunteers,"oral, 100 mg once daily, 14 days, spray-dried dispersion",,subjects with adverse events,50%
CN(O)C(=O)CCC(=O)NCCCN(CCCCN(CCCNC(=O)CCC(=O)N(C)O)C(=O)CCC(=O)N(C)O)C(=O)CCC(=O)N(C)O.[89Zr],,radio-TLC,aqueous buffer,"1 d, pH 7.2, 37 °C, 89Zr-labelled complex, together with: NiCl2 10-fold excess",,intact complex,99 ± 0.5%
CCN(CC)c1ccc2c(c1)O[B-]1(c3ccccc3)OC(=O)C(c3ccccc3)=N[N+]1=C2C(C)C (centres unmarked),,UV/vis decay,aqueous buffer,,,hydrolysis activation energy,23.7 kcal/mol
CCCCN1C(=O)c2cccc3c(NCCCCCCN4CCOCC4)ccc(c23)C1=O,,,chloroform,,,fluorescence lifetime,9.8 ns
CCc1cnc(NC(=O)c2cc(S(=O)(=O)N3CCOCC3)ccc2N(C)C2CCCC2)s1,,,"mouse, blood","10 mg/kg, 3 doses",,Eosinophils absolute count,193 µL⁻¹
C=Cc1ccccc1[B-]12OC(=O)C(c3ccccc3)=N[N+]1=Cc1ccc(N(CC)CC)cc1O2 (centres unmarked),,UV/vis decay,aqueous buffer,,,hydrolysis activation energy,23.3 kcal/mol
COc1cc2ncnc(Oc3ccc(Nc4nccc5[nH]cc(-c6ccc(F)cc6)c(=O)c45)cc3F)c2cc1OC,,,"male cynomolgus monkey, plasma","oral, 3 mg/kg",,Cmax,2020 ng/mL
COc1ccc2c(c1)C(C)(C)C(/C=C/C1=C(Oc3ccc(C(=O)NCCCCOc4cc(CN(Cc5ccccn5)Cc5ccccn5)cc(CN(Cc5ccccn5)Cc5ccccn5)c4)cc3)C(=C/C=C3/N(CCCCS(=O)(=O)[O-])c4ccc(OC)cc4C3(C)C)CCC1)=[N+]2CCCCS(=O)(=O)[O-].O=[N+]([O-])[O-].O=[N+]([O-])[O-].[99Tc+].[C-]#[O+].[C-]#[O+].[C-]#[O+].[Zn+2],,,"BALB/c mouse, Staphylococcus aureus myositis, lungs",12 h,,tissue uptake,1.64 %ID/g and 29 %ID/g and 1.48 %ID/g and 0.73 %ID/g
O=C(NCC1OC2CCC=CCCC2O1)c1ccc([18F])nc1 (centres unmarked),,,"healthy female BALB/c nude mice, spleen","intravenous, 7.4 MBq per mouse, 2 min",,tissue uptake,4.2 ± 0.4 %ID/g
C=C(NC(=O)c1csc(-c2nc3c(cc2O)-c2nc(cs2)C(=O)NC(C(C)O)C(=O)NC(=C(C)OC)c2nc(cs2)C(=O)NC2c4nc(cs4)C(=O)NC(COC(=O)c4c5c6c(cccc6n4O)COC(=O)C(OC4CC(C)(O)C(N(C)C)C(C)O4)C2OC5)c2nc-3cs2)n1)C(N)=O (centres unmarked),,,"ICR mice, Streptococcus pneumoniae ATCC 49169 infected, immunocompromised, blood","intravenous, 4 mg/kg three times daily",,AUC(0-t),0.226 µM·h
CN1CCC[C@]1(C)/C=C/S(=O)(=O)NC(=O)Nc1c2c(cc3c1CCC3)CC=C2,,,"human, plasma","oral, 100 mg twice daily of parent drug, metabolite of dosed drug",relative to: day 14 over day 1,AUC(0-24) accumulation ratio,1.4
COC1CN([C@H]2CC[C@H]([C@@]3(C)Oc4c(Cl)cc(C(=O)NCc5c(SC)cc(C)[nH]c5=O)c(C)c4O3)CC2)C1,,,"female CB17 SCID mice, KARPAS-422 xenograft, plasma","25 mg/kg, day 1",,Tmax,1 h
CC(C(=O)O)n1nc(Cn2cc3cc(OCC[18F])c(Cl)cc3n2)c2ccccc2c1=O (racemic),,,"rat, brain",30 min,,tracer uptake,0.03 %ID/g
N#Cc1cc(NC(=O)C2c3ccccc3C(=O)N(CC(F)(F)F)C2c2ccc[n+]([O-])c2)ccc1F (centres unmarked),,,Beagle dog,"oral, dose not given, finding, dose range, 4 day",,maximum mean AUC(0-24),158 µg·h/mL
O=C(Nc1cnccc1-c1ccc([18F])cc1)c1ccnc(NC(=O)C2CC2)c1,,,"FVB/NJ mice (both sexes), pancreas","intravenous, dose not given, 120 min, together with: tariquidar 15 mg/kg i.v. pre-dose",,SUV,0.49
Nc1nc2cnc(C(=O)N3CCOC[C@@H]3c3ccc(C(F)(F)F)cc3)cc2c2c1COC2,,,dog,"oral, 2 mg/kg",,oral bioavailability,100%
CN1C(=O)[C@@H](Cc2ccc(O)c(I)c2)NC(=O)CNC(=O)[C@H](Cc2ccc3ccccc3c2)NC(=O)[C@H](CCCNC(=N)N)NC(=O)[C@H]1CCCNC(=O)c1ccc(CNC(=O)CN2CCN(CC(=O)O)CCN(CC(=O)O)CCN(CC(=O)O)CC2)cc1 [lutetium-177 labelled],,"extrapolation method 2, OLINDA/EXM, refers to: 177Lu radioactivity","human, extrapolated from mice, heart wall",,,absorbed dose coefficient,0.0061 mGy/MBq
Cc1ncsc1-c1ccc(C(C)NC(=O)C2CC(O)CN2C(=O)C(NC(=O)CCCCCCCCCCN2CCCC(Nc3ncc(Cl)c(Nc4ccccc4S(=O)(=O)C(C)C)n3)C2)C(C)(C)C)cc1 (centres unmarked),22Rv1,"RNA-seq, refers to: VIL1 mRNA",,concentration not given,relative to: DMSO,log2 fold change,-1.84
CC(C)c1cnc(-c2cc(Cl)ccc2F)cc1Nc1ccncc1C(=O)NC(CO)CO,,,"female C57BL/6 mice, plasma","oral, 100 mg/kg twice daily, day 1, MC-38 tumour-bearing",,Tmax,12 h
O=c1c2ccccc2[se]n1CCCCCCn1[se]c2ccccc2c1=O,,"shake-flask, RP-HPLC",methanol,"24 h, 25 °C",,solubility,1410 ± 130 µg/mL
O=C([O-])CN1CCN(CC(=O)[O-])CCN(CC(=O)NC[C@H]2CC[C@H](C(=O)N[C@H](Cc3cnc4ccccc4c3)C(=O)NCCCC[C@H](NC(=O)N[C@@H](CCC(=O)O)C(=O)O)C(=O)O)CC2)CCN(CC(=O)[O-])CC1.[64Cu+2],,ex vivo gamma counting,"22Rv1 tumour-bearing mice, liver","intravenous, 0.74 MBq, 1 h post-injection",,tissue uptake,19.2 %ID/g
C=CC(=O)Nc1cccc(Cn2ncc3cnc(Nc4cnn(CCOC)c4)nc32)c1,MAP3K2 human,"binding, KINOMEscan",,100 nM,lower = stronger binding,percent of control,80%
CCC(C(=O)Nc1ccc(C(N)=O)c(F)c1)n1cc(OC)c(-c2cc(Cl)ccc2-n2cc(C(F)(F)F)nn2)cc1=O (centres unmarked),,,healthy male humans,"25 mg, ASD vs IR, fasted",,treatment-emergent adverse events,13.3%
C#Cc1c(F)ccc2cc(O)cc(-c3ncc4c(N5CC6CCC(C5)N6C(=O)OC(C)OC(=O)CC[C@@H](C)[C@H]5CC[C@H]6[C@@H]7CC[C@@H]8C[C@H](O)CC[C@]8(C)[C@H]7C[C@H](O)[C@]56C)nc(OC[C@@]56CCCN5C[C@H](F)C6)nc4c3F)c12 (some centres unmarked),,chemical stability,simulated intestinal fluid,"1 µM, 30 min",,compound remaining,105%
C=CC(=O)Nc1cc(Nc2nccc(-c3cn(C)c4ccccc34)n2)c(OC)cc1N(C)CCNC,,storage stability,human dried blood spots,"5 h, on ice, LLOQ level",,recovery,94.5%

# A few entries again:
Structure (SMILES),tested on,assay,test system,conditions,how to read,endpoint,result
O=c1c2ccccc2[se]n1CCCCCCn1[se]c2ccccc2c1=O,,"shake-flask, RP-HPLC",methanol,"24 h, 25 °C",,solubility,1410 ± 130 µg/mL
O=C([O-])CN1CCN(CC(=O)[O-])CCN(CC(=O)NC[C@H]2CC[C@H](C(=O)N[C@H](Cc3cnc4ccccc4c3)C(=O)NCCCC[C@H](NC(=O)N[C@@H](CCC(=O)O)C(=O)O)C(=O)O)CC2)CCN(CC(=O)[O-])CC1.[64Cu+2],,ex vivo gamma counting,"22Rv1 tumour-bearing mice, liver","intravenous, 0.74 MBq, 1 h post-injection",,tissue uptake,19.2 %ID/g
C=CC(=O)Nc1cccc(Cn2ncc3cnc(Nc4cnn(CCOC)c4)nc32)c1,MAP3K2 human,"binding, KINOMEscan",,100 nM,lower = stronger binding,percent of control,80%
CCC(C(=O)Nc1ccc(C(N)=O)c(F)c1)n1cc(OC)c(-c2cc(Cl)ccc2-n2cc(C(F)(F)F)nn2)cc1=O (centres unmarked),,,healthy male humans,"25 mg, ASD vs IR, fasted",,treatment-emergent adverse events,13.3%
